Published values collected from several papers.
Compare with care: the assays were run in different laboratories.

COCCOCCOCCOCCOCCOCCOCCNC(=O)CCC1(CCC(=O)NCCOCCOCCOCCOCCOCCOCCOC)c2ccccc2-c2ccc(-c3sc(-c4c5c(c(-c6sc(-c7ccc8c(c7)C(CCC(=O)NCCOCCOCCOCCOCCOCCOCCOC)(CCC(=O)NCCOCCOCCOCCOCCOCCOCCOC)c7ccccc7-8)c7c6OCCO7)c6nsnc46)N=S=N5)c4c3OCCO4)cc21 — result for “elimination rate constant”: about 0.74 h⁻¹ (NIR-II fluorescence of blood; KM mouse, female, whole blood; intravenous, 15 mg/kg, liver elimination, negligible renal excretion).
With O=C([O-])CN1CCN(CC(=O)[O-])CCN(CC(=O)NC[C@H]2CC[C@H](C(=O)N[C@H](Cc3cnc4ccccc4c3)C(=O)NCCCC[C@H](NC(=O)N[C@@H](CCC(=O)O)C(=O)O)C(=O)O)CC2)CCN(CC(=O)[O-])CC1.[64Cu+2] the elimination half-life was 1.38 h (ICR mouse, male, blood; intravenous, 0.74 MBq).
For CC(C)N(P(c1ccccc1)c1ccccc1)P(c1ccccc1)c1ccccc1.Cc1ccc(C(C)C)cc1.F[B-](F)(F)F.[Cl][Ru+], “elimination rate constant” read 0.055 h⁻¹ (ICP-MS, measured: ruthenium; BALB/c nude mouse, serum; intraperitoneal, 5 mg/kg).
Cc1cc(O)cc(O)c1C(=O)c1c2c3c(c(O)cc(C)c3oc1=O)C(=O)c1c(O)cc(O)cc1-2: “elimination rate constant” 0.96 h⁻¹ (KM mouse, male, plasma; intraperitoneal, 15 mg/kg).
For O=C(OCc1cccc(O)c1O)c1ccc(O)c(CO)c1, “elimination rate constant” read 16.5 h⁻¹ (mouse CD1, male, plasma; intravenous bolus, 10 mg/kg, 0 to 30 min).
With COC1C=COC2(C)Oc3c(C)c(O)c4c(c3C2=O)C2=NC3(CCN(CC(C)C)CC3)NC2=C(NC(=O)C(C)=CC=CC(C)C(O)C(C)C(O)C(C)C(OC(=O)Nc2cnccn2)C1C)C4=O (centres unmarked) the elimination half-life was 4 h (CD-1 mouse female, plasma).
CC1(C)C(/C=C/C2=C(Oc3ccc(CCC(=O)NCCC(O)(P(=O)([O-])[O-])P(=O)([O-])O)cc3)C(=C/C=C3/N(CCC[N+](C)(C)C)c4ccccc4C3(C)C)/CCC2)=[N+](CCC[N+](C)(C)C)c2ccccc21 (centres unmarked) has an elimination half-life of 1.13 h (mouse, male, whole blood; intravenous, 10 nmol, over 4 h).
Under “elimination rate constant”, Cc1ccc(C(C)C)cc1.O=C(N=P(c1ccccc1)(c1ccccc1)c1ccccc1)c1ccccn1.[Cl-].[Cl-].[Ru+2] is recorded as 0.055 h⁻¹ (measured: ruthenium; NOD scid mouse, plasma; intraperitoneal, 5 mg/kg).

Repeated from above:
CC1(C)C(/C=C/C2=C(Oc3ccc(CCC(=O)NCCC(O)(P(=O)([O-])[O-])P(=O)([O-])O)cc3)C(=C/C=C3/N(CCC[N+](C)(C)C)c4ccccc4C3(C)C)/CCC2)=[N+](CCC[N+](C)(C)C)c2ccccc21 (centres unmarked) has an elimination half-life of 1.13 h (mouse, male, whole blood; intravenous, 10 nmol, over 4 h).
